Results from different studies.
Each numbered part is a random draw from the data of one study; scales do not carry over between parts.

Series 1
Target: Histone acetyltransferase KAT6A, winged helix 2, GST fusion (KAT6A, Homo sapiens, UniProt Q92794, residues 85-181)
Technique: protein binding microarray
Molecule type: double-stranded DNA, one strand shown
Matrix: in vitro
Concentration: not given
Notes: 8-mer, flanks averaged, mean of 2 arrays, mostly near background
Reference: not given
Direction: higher = stronger binding
Quantity: E-score
Residues (chain): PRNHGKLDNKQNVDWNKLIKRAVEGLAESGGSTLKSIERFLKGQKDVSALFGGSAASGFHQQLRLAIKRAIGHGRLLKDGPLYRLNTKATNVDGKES
CTTGTAGC: -0.0026
CGGCTTAG: 0.116
CGCTCGGC: 0.231
CATTTGGC: 0.0557
AGACAACC: -0.0442
CAACCCCG: -0.00715
CGTATGCA: -0.0633
ACTAGTCA: -0.233
AACATTAA: -0.114
CTTCAACA: -0.0293
AAGATGCT: -0.0474
CAGACTGC: -0.17
AGCTCGTA: -0.0214
ATGTAATC: -0.0816
GGGATCAA: 0.0214
CGTCTATA: -0.156
AAAGAGGC: -0.064
CCCTATCG: -0.0912
CGGAACTC: -0.0212
TACCTAGA: -0.109
ATACTCAG: 0.109
TAACCACA: -0.251

Series 2
Target: Interferon regulatory factor 5, full length, phosphomimetic (IRF5, Homo sapiens, UniProt Q13568-2, residues 1-514, S451D/S453D/S456D/S462D)
Technique: protein-binding microarray
Molecule type: double-stranded DNA, one strand shown
Matrix: in vitro
Concentration: 940 nM top
Notes: 60-bp whole probe
With: salmon DNA 0.4 mg/ml
Reference: random background probes
Direction: higher = stronger binding
Quantity: fitted relative affinity
Constant ends, left off below: GCCTAGCAC … GTCTTGATTCGCTTGACGCTGCTG
TAAGATTTCAGTCTCGATTAGTGCTAG: 4.28 z-score
TTAGATATCAGACGGGATTAGTGCTAG: -0.514 z-score
GTAAATCTTTTTCCCTATTAGTGCTAG: 1.74 z-score
TTAGGTTTACTACTGCTTTAGTGCTAG: -0.138 z-score
TTAGGACTAGACACTGGGTTAGTGCTA: -0.298 z-score
CCTTATCCCTAATCTCAGCCTGTGCTA: 1.28 z-score
TCATGTTGCAGACTCGAACTGTGCTAG: -0.162 z-score
TTAGGTTTCCTCCTGCTTTAGTGCTAG: 1.19 z-score
TTAAGTTCCGGTTTCGGTTAGTGCTAG: 10.2 z-score
GACGGTATCGACTATCGGTACGTGCTA: 5.37 z-score
TCATCTTGTTCTCTCTGACTGTGCTAG: 1.28 z-score
TTAGGTCTCGTTTTCCTTTAGTGCTAG: 2.93 z-score
GACTGTATCGGTCTCGGGACGTGCTAG: 3.66 z-score
TTAGGTTTCCTGATCCTTTAGTGCTAG: 0.49 z-score
GACGGACTGGACTTTCGGGACGTGCTA: 0.411 z-score
GACGGTATCGGACTGTGGACGTGCTAG: 2.6 z-score
GACGGTCTCGGTCTCGCGACGTGCTAG: 4.21 z-score
TTAGGGATCGACTTTCGGTTAGTGCTA: 3.24 z-score
GACGGTATCGGTATCGGGATGTGCTAG: 8.22 z-score
TTTGGTATCCTACTGCTTTAGTGCTAG: 0.45 z-score
TTAGATTTAAGTTTCGATTAGTGCTAG: 8.13 z-score

Series 3
Target: Sal-like protein 4, full length isoform A (SALL4, Homo sapiens, UniProt Q9UJQ4, residues 1-1053)
Chain of UniProt Q9UJQ4 (whole entry, looked up): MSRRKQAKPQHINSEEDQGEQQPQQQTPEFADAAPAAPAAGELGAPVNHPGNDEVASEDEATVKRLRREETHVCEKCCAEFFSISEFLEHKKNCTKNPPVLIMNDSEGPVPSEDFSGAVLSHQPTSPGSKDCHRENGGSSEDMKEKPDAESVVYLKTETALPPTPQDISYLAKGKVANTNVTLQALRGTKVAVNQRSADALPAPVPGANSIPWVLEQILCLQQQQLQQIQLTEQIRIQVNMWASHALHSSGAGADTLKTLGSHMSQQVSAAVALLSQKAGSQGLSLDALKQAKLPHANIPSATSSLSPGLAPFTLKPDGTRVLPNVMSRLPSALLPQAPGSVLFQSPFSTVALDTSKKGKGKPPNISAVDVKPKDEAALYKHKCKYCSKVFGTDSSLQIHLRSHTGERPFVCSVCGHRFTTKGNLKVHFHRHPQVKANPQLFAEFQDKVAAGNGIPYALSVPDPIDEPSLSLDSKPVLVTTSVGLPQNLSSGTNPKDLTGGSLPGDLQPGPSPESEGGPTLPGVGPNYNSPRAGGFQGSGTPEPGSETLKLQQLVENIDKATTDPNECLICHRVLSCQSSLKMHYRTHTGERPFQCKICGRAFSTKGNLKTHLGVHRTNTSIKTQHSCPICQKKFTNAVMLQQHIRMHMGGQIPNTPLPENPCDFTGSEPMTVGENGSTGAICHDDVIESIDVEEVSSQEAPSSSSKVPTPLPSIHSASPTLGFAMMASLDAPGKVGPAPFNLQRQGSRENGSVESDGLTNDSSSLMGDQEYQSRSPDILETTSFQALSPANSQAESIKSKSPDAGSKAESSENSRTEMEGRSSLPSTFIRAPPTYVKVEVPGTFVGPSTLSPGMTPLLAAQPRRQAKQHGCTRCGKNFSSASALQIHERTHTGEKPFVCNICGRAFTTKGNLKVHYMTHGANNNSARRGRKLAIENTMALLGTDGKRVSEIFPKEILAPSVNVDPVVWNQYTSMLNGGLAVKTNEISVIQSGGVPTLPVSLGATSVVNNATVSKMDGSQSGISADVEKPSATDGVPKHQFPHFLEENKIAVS
Technique: universal PBM
Molecule type: double-stranded DNA, one strand shown
Matrix: in vitro
Concentration: 600 nM
Notes: 8-mer, flanks averaged, mean of replicates
Direction: higher = stronger binding
Quantity: E-score
CCCGAGAG: -0.16
CGGCTGGC: -0.38
ACCTCCTG: -0.139
ATTCATGC: 0.0721
ATGGGTAC: 0.0867
AGACATAA: 0.246
GTCAAAAA: 0.245
AAGCGTTC: -0.0965
GACGCCCA: -0.216
AATAACTA: 0.388
CTGCTAGA: -0.165
AGCTATTA: 0.257
GCAGAGAA: -0.0141
ACATAAGT: 0.275
CAAGGAAC: -0.144
AAGGCTCA: -0.0646
ACACGTAT: 0.168
GATTGTTA: 0.216
CATGGAGC: -0.184
GTGACCAC: -0.268
ATTAGATC: 0.161
CAAGTGTG: 0.17
CGAAGTAC: 0.0319
AAGCGTAA: 0.0607
GGCGGGCA: -0.198

Series 4
Target: Ras GTPase-activating protein-binding protein 1, C-terminal RGG region (G3BP1, Homo sapiens, UniProt Q13283)
Chain of UniProt Q13283 (whole entry, looked up): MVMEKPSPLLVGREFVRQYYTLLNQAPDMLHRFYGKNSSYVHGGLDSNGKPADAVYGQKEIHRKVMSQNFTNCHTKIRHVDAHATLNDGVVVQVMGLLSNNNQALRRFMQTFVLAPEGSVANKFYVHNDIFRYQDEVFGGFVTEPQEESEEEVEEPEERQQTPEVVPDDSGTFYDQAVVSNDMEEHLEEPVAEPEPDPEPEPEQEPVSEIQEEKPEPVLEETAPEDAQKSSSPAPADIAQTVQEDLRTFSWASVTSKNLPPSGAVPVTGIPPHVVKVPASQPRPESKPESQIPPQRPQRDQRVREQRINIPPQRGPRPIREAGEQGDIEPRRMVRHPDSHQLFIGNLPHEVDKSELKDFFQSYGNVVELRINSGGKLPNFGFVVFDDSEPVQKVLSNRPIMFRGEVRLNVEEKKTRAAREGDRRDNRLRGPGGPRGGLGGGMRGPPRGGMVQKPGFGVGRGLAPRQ
Technique: RNA Bind-n-Seq
Molecule type: RNA
Matrix: in vitro
Concentration: 1 µM
Notes: whole 134-nt RNA, ends assumed
With: 150 mM KCl
Reference: input library
Direction: higher = stronger binding
Quantity: log2 enrichment
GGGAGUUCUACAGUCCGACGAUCGUCCUGUGCUACACAUCGUAUGUACCGAAUCGGAAAAAAGGAAAAAAGGAAAAAAGGGAAAGUAUUAUGUUACGCCGUUCGGAUCUGCACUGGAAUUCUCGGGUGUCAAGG: -1.66
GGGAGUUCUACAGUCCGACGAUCAAGUCCUGUGCUACACAUCGUAUGUACCGAAUCGGGUGGGAAAAAAAGGGUUUGGGAAAGUAUUAUGUUACGCCGUUCGGAUCUGCACUUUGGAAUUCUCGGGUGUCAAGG: 0.692
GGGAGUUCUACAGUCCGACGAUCCCUGUGCUACACAUCGUAUGUACCGAAUCGGGGAAAAAAGGGAAAAAAGGGGAAAAAAGGGAAAGUAUUAUGUUACGCCGUUCGGAUCUGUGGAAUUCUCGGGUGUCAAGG: -1.38
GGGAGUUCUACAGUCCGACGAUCUCUUCAGAGGCCCCACAGUAUCAAAUAUCCGCCUGGCUGGAUUAGAGUAUGUUCUGCACUUCACUGCACUGAAUGGGAAGAUUUACUUUCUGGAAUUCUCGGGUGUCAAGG: -0.714
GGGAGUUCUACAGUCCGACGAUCAGUCCUGUGCUACACAUCGUAUGUACCGAAUCAAAUUUUUAAACCCCCAAACCCAAAAAAGUAUUAUGUUACGCCGUUCGGAUCUGCACUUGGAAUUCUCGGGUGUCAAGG: -0.956
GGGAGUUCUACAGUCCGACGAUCGUCCUGUGCUACACAUCGUAUGUACCGAAUCAAAUUUUUUUAAAUUUAAAUUUUUAAAAAAGUAUUAUGUUACGCCGUUCGGAUCUGCACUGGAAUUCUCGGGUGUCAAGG: -2.26
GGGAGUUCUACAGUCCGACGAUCGCAGGAAGUAAAAACAAAUGGAGAUGCUUCGGAUAGUGGCAGGGGUGGGGGUUGCUAAGGAAAGGGUGGGAUGGGAGUGGGUAAAGAGUUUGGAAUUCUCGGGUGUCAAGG: 2.47
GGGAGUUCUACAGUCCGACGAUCUCAUUAGAAGAUCUAAUUGAGAGAGAGGUAACUGGUAUCCUUUUCCUACCAUAAAAACUGAAAGCAGUAUUUAUUGUGAAAUUCUAAUACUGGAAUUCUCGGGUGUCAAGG: -1.23
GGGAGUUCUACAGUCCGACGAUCUAACUUUAGAGGAGGAUCUGAUGGAUAUGGCAGUGGACGUGGAUUUUGGGAUGGCUAUAAUGGGUAUGGAGGAGGACCUGGAGGUGGCAAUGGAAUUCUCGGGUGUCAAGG: -0.9
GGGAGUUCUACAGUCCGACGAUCCACAGACAACACGCACCCACACAGAAACAGAGGGAAGGGGUUGGGAUGGGGACAGGGUGCACAGCAGGGCGGGGUAGGACCCCAGCCCCUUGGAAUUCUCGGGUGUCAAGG: -0.348

Repeated from above (series 2):
TTAAGTTCCGGTTTCGGTTAGTGCTAG: 10.2 z-score
GACGGTATCGACTATCGGTACGTGCTA: 5.37 z-score
TCATCTTGTTCTCTCTGACTGTGCTAG: 1.28 z-score
TTAGGTCTCGTTTTCCTTTAGTGCTAG: 2.93 z-score
GACTGTATCGGTCTCGGGACGTGCTAG: 3.66 z-score
TTAGGTTTCCTGATCCTTTAGTGCTAG: 0.49 z-score
GACGGACTGGACTTTCGGGACGTGCTA: 0.411 z-score
GACGGTATCGGACTGTGGACGTGCTAG: 2.6 z-score
GACGGTCTCGGTCTCGCGACGTGCTAG: 4.21 z-score
